Experimental data gathered from unrelated publications.
Lines come from different studies, so protocols differ. Several values in a cell are separate wells, animals, samples, runs or records. Numbers after ± are the reported error.

| Compound | test | system | conditions | scale | endpoint | result |
| --- | --- | --- | --- | --- | --- | --- |
| N#Cc1ccc2c(-c3ccncc3)c(-c3ccc(F)cc3)nn2c1 | kinase binding, competitor, MIB/MS competition, item: KSP1 | Candida albicans cell lysate | 10 µM | baseline: DMSO | log2 fold change | 0.129 |
| O=C(COc1ccc(Cl)cc1)NC12CC(c3nnc([C@H]4C[C@@H](OC(F)(F)F)C4)o3)(C1)C2 |  | healthy human, PBMC | oral, 400 mg single dose, day 2, 24 h post-dose, median, with: sodium arsenite ex vivo | baseline: baseline | ATF4 protein change | -58.8% |
| NC(=O)c1cnc2[nH]ccc2c1N[C@@H]1[C@@H]2CC3C[C@H]1C[C@@](O)(C3)C2 | CD4+ effector T cells, flow cytometry | Japanese humans, peripheral blood | 20 mg single dose | baseline: baseline | percent change | 0.05% |
| COc1ccc(-c2cncc(N[C@@H](C)c3cccc(NC(=O)c4cncc(C)c4)c3)n2)cc1OC | item: rno-miR-144-3p | rat SU5416/hypoxia model, lung | dose not given, unit not given | baseline: SU5416/hypoxia vehicle | delta delta Ct | 0.668 |
| Cn1cc(Nc2nccc(-c3ccc4c(c3)CN(C3COC3)CC[C@H]4NC(=O)c3cn(C(C)(C)C)nn3)n2)cn1 | item: Th1 Pathway | splenic B cells, mouse | in vivo, 30 mg/kg, IgD-activated B cells | baseline: vehicle, positive = activation | pathway activation z-score | 2.83 |
| Cc1oncc1C(=O)Nc1ccc(C(F)(F)F)cc1 | item: dihydroorotate | female CD-1 mice, pooled urine | oral, 10 mg/kg daily, 8-24 h after dose 10, 10-day dosing |  | DHO concentration | 5480 ± 827 µM |
| CCO[C@H]1CCN(Cc2c(OC)cc(C)c3[nH]ccc23)[C@H](c2ccc(C(=O)O)cc2)C1 | item: PNH-type erythrocytes | PNH patients, blood | 50 mg/200 mg, week 8, mean |  | PNH red cell clone size | 85.1% |
| Cc1cc(F)cc2c(CCC(=O)N[C@@H]3C(=O)NC[C@H]3O)c(-c3ccc(F)cc3)[nH]c12 | immunohistochemistry | mice, APOL1 G2, single copy, kidney | oral, 30 mg/kg twice daily, with: IFNγ plasmid injection | direction not given | nephrin H-score | 113 and 98 and 125 and 117 and 74.6 |
| O=C1Nc2cc3[nH]nc(-c4ccncc4)c3cc2CN1Cc1ccccc1 | RECIST v1.1 | human, relapsed or refractory advanced solid tumours | intravenous, 4.8 mg/kg, pooled schedules |  | partial response, best response | 0% |
| N#Cc1ccc2c(c1)[C@H]1CCCN(C(=O)c3ccc4[nH]cnc4c3)[C@H]1C2 |  | human, plasma | 80 mg, day 15, 360 h | baseline: placebo and baseline | change in HOMA-IR | -21.2% |
| Cc1cc(Nc2ccc(S(F)(F)(F)(F)F)cc2)n2nc(C(C)(F)F)nc2n1 | item: dihydroorotate | female CD-1 mice, pooled urine | oral, 300 mg/kg daily, 8-24 h after dose 10 |  | DHO concentration | 8.4 ± 0.637 µM |
| COc1cc(Nc2ncc3c(n2)-c2ccc(Cl)cc2C(c2c(F)cccc2OC)=NC3)ccc1C(=O)O |  | mice, NB-1382 neuroblastoma xenograft | 20.8 mg/kg | direction not given | median response score | 2 |
| Cc1nn(-c2nc3c(F)cc(F)cc3s2)c(O)c1C(c1ccc(C(F)(F)F)cc1)c1c(C)nn(-c2nc3c(F)cc(F)cc3s2)c1O |  | mouse, cerulein-induced acute pancreatitis, serum | 25 mg/kg, 192 h |  | lipase activity | 15.6 mOD/min and 69.9 mOD/min and 76.7 mOD/min and 78.4 mOD/min and 23.9 mOD/min |
| COc1nc(-c2cc(C)c(N[C@@H](C)c3cc(F)cc(F)c3)nn2)ccc1-n1cnc(C)c1 | item: Aβ40 | rat Sprague-Dawley male, plasma | oral, 5 mg/kg daily for 9 days, 4 h after dose | baseline: vehicle | change in level | 57% |
| COc1cc2nccc(Oc3ccc(NC(=O)NC4CC4)c(Cl)c3)c2cc1C(N)=O | item: sum of target lesion diameters | human, RR-DTC patients | tumour growth model, bootstrap median |  | Ang-2 tumour reduction rate constant | -0.0137 /week |
| CC(=O)NCC(=O)NCC(=O)N[C@H](C(=O)N[C@@H](Cc1ccc(O)cc1)C(=O)N[C@@H](CO)C(=O)N[C@H]1CSSC[C@@H](C(=O)N[C@@H](CCCNC(=N)N)C(=O)N2CCC[C@H]2C(=O)N[C@@H](CCC(N)=O)C(=O)N[C@@H](CCCNC(=N)N)C(=O)NCC(=O)NCCC(=O)N[C@@H](CCCCNC(=O)CN(CC(=O)NCCCC[C@H](NC(=O)CCNC(=O)CNC(=O)[C@H](CCCNC(=N)N)NC(=O)[C@H](CCC(N)=O)NC(=O)[C@@H]2CCCN2C(=O)[C@H](CCCNC(=N)N)NC(=O)[C@@H]2CSSC[C@H](NC(=O)[C@H](CO)NC(=O)[C@H](Cc3ccc(O)cc3)NC(=O)[C@@H](NC(=O)CNC(=O)CNC(C)=O)[C@@H](C)O)C(=O)N[C@@H](Cc3c[nH]cn3)C(=O)N[C@@H](Cc3ccccc3)C(=O)NCC(=O)N[C@@H](C)C(=O)N[C@@H](CC(C)C)C(=O)N[C@@H]([C@@H](C)O)C(=O)N[C@@H](Cc3c[nH]c4ccccc34)C(=O)N[C@@H](C(C)C)C(=O)N2)C(N)=O)C(=O)CCN)C(N)=O)NC(=O)[C@H](C(C)C)NC(=O)[C@H](Cc2c[nH]c3ccccc23)NC(=O)[C@H]([C@@H](C)O)NC(=O)[C@H](CC(C)C)NC(=O)[C@H](C)NC(=O)CNC(=O)[C@H](Cc2ccccc2)NC(=O)[C@H](Cc2c[nH]cn2)NC1=O)[C@@H](C)O |  | healthy BALB/c mice | subcutaneous, 0.16 mg/kg, 14 d, single dose |  | haematocrit | 46.9% |
| COc1cc2cc(-c3ccc(CC(=O)Nc4cc(C(C)(C)C(F)(F)F)no4)cn3)cnc2cc1OC | RECIST v1.1 | human RET-mutant medullary thyroid cancer | 75 mg, phase I |  | best overall response PD | 0% |
| NCC(=O)Nc1cncc(-c2nn3c(=O)cc(N4CCNCC4)nc3s2)c1 | ADP-induced platelet aggregation, light transmission aggregometry | human, stable CAD on aspirin, ex vivo platelets | subcutaneous, 0.05 mg/kg, 90 min post-dose, median value, with: ADP 20 µM |  | inhibition | 31.9% |
| c1ccc(-c2n[nH]cc2-c2ccnc3ccccc23)nc1 | kinase binding, competitor, MIB/MS competition, item: CDC7 | Candida albicans cell lysate | 100 nM | baseline: DMSO | log2 fold change | 1.23 |
| C[C@@H](NC(=O)N1C(=O)[C@H](Cc2ccnc(N)c2)[C@H]1C(=O)O)C1CCCCC1 |  | human | iv infusion, 0.3 mg/kg/h, 24 h |  | aPTT Emax | 49.5 s |
| CSCCNc1nc(SCCC(F)(F)F)nc2c1ncn2[C@@H]1O[C@H](COP(=O)(O)OP(=O)(O)C(Cl)(Cl)P(=O)(O)O)[C@@H](O)[C@H]1O | light transmittance aggregometry | human patients, platelet-rich plasma | dose not given, 30 min, with: ADP 20 µM | baseline: patients | patients with IPA above 90% | 0% |

| Compound | test | system | conditions | scale | endpoint | result |
| --- | --- | --- | --- | --- | --- | --- |
| O=c1cc(-c2ccc(O)cc2)oc2c([C@@H]3OC[C@H](O)[C@H](O)[C@H]3O)c(O)c([C@@H]3O[C@H](CO)[C@@H](O)[C@H](O)[C@H]3O)c(O)c12 |  | HFpEF mice | oral, 20 and 40 mg/kg/day |  | mitral E peak velocity | decreased |
| Cc1ccc([C@@H]2O[C@H](CO)[C@@H](O)[C@H](O)[C@H]2O)cc1Cc1ccc(-c2ccc(F)cc2)s1 |  | Japanese type 2 diabetes patients | 200 mg, day 17 | baseline: day 1 | change in fasting plasma glucose | -51 mg/dL |
| CC1(C)CCC(CN2CCN(c3ccc(C(=O)NS(=O)(=O)c4ccc(NCC5CCOCC5)c([N+](=O)[O-])c4)c(Oc4cnc5[nH]ccc5c4)c3)CC2)=C(c2ccc(Cl)cc2)C1 | cell killing | canine lymph node CD21+ B cells, dog 34 | 24 h |  | EC50 | 338 nM |
| COc1nnc2ccc(N3CCC(c4ccc(OCCN5CCN(C)C(=O)[C@H]5C)cc4)CC3)nn12 |  | human patients | 10 mg once daily, above baseline variability |  | time above HEXIM1 threshold | 5.19 h |
| C[C@@H]1CCC[C@H](n2cnc(-c3cc(Cl)ccc3-n3cc(Cl)nn3)cc2=O)c2cc(ccn2)-c2c(cnn2C(F)F)NC1=O |  | rat plasma | IC1.5× aPTT, STA-PTT reagent |  | concentration for aPTT prolongation | 24 µM |
| N#Cc1ccn2c(-c3ccncc3)c(-c3ccc(F)cc3)nc2c1 | kinase binding, competitor, MIB/MS competition, item: MKK2 | Candida albicans cell lysate | 10 µM | baseline: DMSO | log2 fold change | 0.0802 |
| C[C@H]1C[C@H]2CSC(N)=N[C@@]2(c2nc(NC(=O)c3ccc(OC(F)F)cn3)cs2)CO1 | item: total Aβ | healthy adults, plasma | 15 mg once daily, day 10 | baseline: placebo | percent change from baseline | -48.7% |
| Cc1noc(C)c1-c1cc(C(O)(c2ccccn2)c2ccccn2)c2nc(C3CC3)[nH]c2c1 | item: CCR2 expression | human, peripheral blood | 6 mg, day 1, 1599 study |  | maximum inhibition | 23.9% |
| Cc1n[nH]c2ccc(-c3cc(OC[C@@H](N)Cc4ccccc4)cnc3-c3ccoc3)cc12 | kinase binding, competitor, MIB/MS competition, item: SAK1 | Candida albicans cell lysate | 1 µM | baseline: DMSO | log2 fold change | -0.223 |
| CN(C)C(=O)c1cc2cnc(Nc3ccc(N4CCNCC4)cn3)nc2n1C1CCCC1 | RNA-seq GSEA, item: HALLMARK_HEDGEHOG_SIGNALING | MB002 tumour | concentration not given, in vivo | baseline: vehicle, direction not given | normalized enrichment score | -1.64 |
| C[C@@H](O)CCOC(=O)C[C@@H](C)O | item: Leu/Ile | human, plasma | 60 min, log2-transformed values |  | metabolite level | 7.19 ± 0.28 µmol/L |
| N#CCC1CCN(c2nc(Nc3ccc(N4CCC(O)CC4)cc3)c3c(=O)[nH]ncc3n2)CC1 | Olink multiplex, item: CDCP1 | human, serum | 20 mg, day 15 | baseline: baseline | fold change from baseline | -1.1 |
| CC(C)NCC(O)c1ccc(O)c(O)c1 (stereo not drawn) |  | ventricular cardiomyocytes, C57BL/6 mouse | dose not given, 0.412 s |  | sarcomere length | 1.72 µm |
| COc1ccccc1[C@H](Cn1c(=O)n(C(C)(C)C(=O)O)c(=O)c2c(C)c(-c3ncco3)sc21)OC1CCOCC1 | [1-13C]acetate infusion, isotopomer analysis | overweight or obese healthy men, plasma VLDL-TG palmitate | oral, 50 mg single dose, -1 h relative to dose, fasted baseline |  | fractional hepatic DNL | 5.35 % new palmitate |
| C[C@H](Oc1ccc(Br)cc1-c1ccon1)C(=O)O | muscle velocity recovery cycles | human, tibialis anterior muscle | 400 mg once daily, multiple doses, 30 Hz train for 30 s | baseline: placebo | peak amplitude change | -1.7% |
| CN[C@@H]1COc2c(S(=O)(=O)NC(=O)Nc3c4c(cc5c3CCC5)CCC4)cnn2C1 | item: IL-18 | human participants, whole blood ex vivo | 1800 mg single dose, 48 h, IL-18, circulating, adjusted for, with: LPS/ATP | baseline: baseline | inhibition | 69.6% |
| OC(CCN1CCCCC1)(c1ccccc1)C1CC2C=CC1C2 (stereo not drawn) | resting-state EEG | healthy elderly humans | oral, 2 mg, eyes open, LS mean |  | power, EEG beta, O2-Pz | 7 µV² |
| C=CCn1c(=O)c2cnc(Nc3ccc(N4CCN(C)CC4)cc3)nc2n1-c1ccc2c(n1)[C@@](O)(CC)CC2 |  | A-427, NOD/SCID mice, xenograft | oral, 210 mg/kg, intermittent, day 51 | baseline: vehicle | tumour volume difference | -341 ± 4.9 mm3 |
| CN(C)C(=N)N=C(N)N |  | gestational diabetes women | dose not given, treated arm |  | caesarean birth incidence | 40% |
| CCN(CC)CCNC(=O)c1cc(S(C)(=O)=O)cnc1OC.Cl | catalepsy, bar test | female CD-1 mice | intraperitoneal, 200 mg/kg, 90 min, maximum 1 min |  | time on bar | 1.96 s |
| O=C(O)CNC(=O)Cc1ccccc1 |  | ventricular cardiomyocytes, C57BL/6 mouse | dose not given, 0.144 s |  | sarcomere length | 1.67 µm |

Some of these lines once more:
| Compound | test | system | conditions | scale | endpoint | result |
| --- | --- | --- | --- | --- | --- | --- |
| Cn1cc(Nc2nccc(-c3ccc4c(c3)CN(C3COC3)CC[C@H]4NC(=O)c3cn(C(C)(C)C)nn3)n2)cn1 | item: Th1 Pathway | splenic B cells, mouse | in vivo, 30 mg/kg, IgD-activated B cells | baseline: vehicle, positive = activation | pathway activation z-score | 2.83 |
| CN(C)C(=O)c1cc2cnc(Nc3ccc(N4CCNCC4)cn3)nc2n1C1CCCC1 | RNA-seq GSEA, item: HALLMARK_HEDGEHOG_SIGNALING | MB002 tumour | concentration not given, in vivo | baseline: vehicle, direction not given | normalized enrichment score | -1.64 |
| COc1cc2nccc(Oc3ccc(NC(=O)NC4CC4)c(Cl)c3)c2cc1C(N)=O | item: sum of target lesion diameters | human, RR-DTC patients | tumour growth model, bootstrap median |  | Ang-2 tumour reduction rate constant | -0.0137 /week |
| CCO[C@H]1CCN(Cc2c(OC)cc(C)c3[nH]ccc23)[C@H](c2ccc(C(=O)O)cc2)C1 | item: PNH-type erythrocytes | PNH patients, blood | 50 mg/200 mg, week 8, mean |  | PNH red cell clone size | 85.1% |
